Published values collected from several papers.
Every numbered part comes from another study and shows a few of its results, in no order. Changes are numbered by the printed parent chain.

Series 1
Target: Interferon regulatory factor 5, full length, phosphomimetic (IRF5, Homo sapiens, UniProt Q13568-2, residues 1-514, S451D/S453D/S456D/S462D)
Method: protein-binding microarray
Form: double-stranded DNA, one strand shown
Sample: in vitro
Tested at: 940 nM top
Notes: 60-bp whole probe
With: salmon DNA 0.4 mg/ml
Relative to: random background probes
Reading: higher = stronger binding
Endpoint: fitted relative affinity
Constant ends, left off below: GCCTAGCAC … GTCTTGATTCGCTTGACGCTGCTG
TCAATTCTCTTCTTGCAACTGTGCTAG: 1.16 z-score
TTAGGTTTCGGTATCGGCTAGTGCTAG: 15.2 z-score
TCAACTTTGGTTTGTACACTGTGCTAG: -0.119 z-score
TTAGGTTTCGACTTTAGGTTAGTGCTA: 8.87 z-score
GACGGTTTCGGGATTCGGGACGTGCTA: 7.81 z-score
TAAGGTTTCCTTATCCTTTAGTGCTAG: 1.39 z-score
TTAGGACTGGGGACTGGGTTTGTGCTA: -0.355 z-score
GGAAATTCTCATTTCCAATTGTGCTAG: 0.526 z-score
CTGCATCTGATTTCTCAAACAGTGCTA: 0.407 z-score
GACGGTTTCCTTTTCCTGCCGTGCTAG: 1.96 z-score
TCAGCCATATTTATCTGACTGTGCTAG: -0.136 z-score
TCATGTCTGTTTTTGCTACTGTGCTAG: 0.744 z-score
TTTTTTTTTTCCCTGAAAAAGTGCTAG: 1.61 z-score
TCATTTTTCTCAACCGTACTGTGCTAG: 1.3 z-score
TCAAATCCCACATTTGATACTGTGCTA: 0.555 z-score
TCAATTTTTTTTATCAAACTGTGCTAG: 0.476 z-score
TTCGGTATCGGTTTCGGTTAGTGCTAG: 12.7 z-score
TCAATTTTGCTTTCATTACTGTGCTAG: 1.82 z-score

Series 2
Target: RING finger protein unkempt homolog, zinc fingers 1-6, GST-SBP tag (UNK, Homo sapiens, UniProt Q9C0B0, residues 30-357)
UniProt Q9C0B0, sequence (30-357, looked up): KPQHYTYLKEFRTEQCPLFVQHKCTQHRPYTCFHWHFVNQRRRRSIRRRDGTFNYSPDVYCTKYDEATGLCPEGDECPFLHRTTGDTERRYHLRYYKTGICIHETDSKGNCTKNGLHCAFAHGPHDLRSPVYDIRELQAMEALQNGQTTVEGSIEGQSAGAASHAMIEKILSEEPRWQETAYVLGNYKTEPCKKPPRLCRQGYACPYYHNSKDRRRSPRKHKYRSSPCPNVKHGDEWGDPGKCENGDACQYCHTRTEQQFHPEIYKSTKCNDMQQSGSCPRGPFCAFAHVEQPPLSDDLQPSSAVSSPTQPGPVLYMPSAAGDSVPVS
Method: RNA Bind-n-Seq
Form: RNA
Sample: in vitro
Tested at: not given
Notes: RNA with constant flanks, human and mouse sites, ends assumed
Relative to: input RNA pool
Reading: higher = stronger binding
Endpoint: bound/input enrichment
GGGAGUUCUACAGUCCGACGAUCGACCAUGAAUUAUGGAAUUUCCUAAAUGAAGCAUUCAGGAAUGGAAUGAGAGAAUGUCACAUAGAAAAUAAAUGAUUUUUAAGUUAUGUCUAUUAAUUUGACUCUAGAUAUAUAUAUUUACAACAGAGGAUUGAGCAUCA: 5.1 ratio
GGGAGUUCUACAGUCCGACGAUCAAUAGUAGUACAGCUAUUGGAAUCAGAUGCAAAGAUGGUGUUGUCUUUGGGGUAGAAAAAUUAGUCCUUUCUAAACUUUAUGAAGAAGGUUCCAACAAAAGACUUUUUAAUGUUGAUCGGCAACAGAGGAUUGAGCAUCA: 0.533 ratio
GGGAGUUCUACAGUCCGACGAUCCUUCUGCAGCUCAUCUCAUGCCUGCAGUGCCGGCGGUGUCCCCAUUACUUCUUACCGAACUUAGAUCUGUUUCAAGGCAAACCCCACUCGGCCUUGGAAAACGCUGCUAAACAAACGUGGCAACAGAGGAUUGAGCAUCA: 0.459 ratio
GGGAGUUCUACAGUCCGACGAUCUACAUGGGAGAGACCACAGCCUUUGCCUCCAGGUUGGGAAAGAAGAGUUGAUGAUCGUGGAAGAGUUUAUUAUGUGGAUCAUAACACCAGAACAACAACCUGGCAGCGGCCUACUAUGGACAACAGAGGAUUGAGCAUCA: 0.236 ratio
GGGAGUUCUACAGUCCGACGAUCUUGUAAUGUGGCCUGAAAACAAGCUAACUGUAUUAGAAACUAUUCAAAAACUAGGUAUUUUUAGUGACCUGUAGGCAGUGGCAAAUACAGACAUGUGAACCUUGAAUACAUUACAUUUCUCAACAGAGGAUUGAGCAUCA: 1.66 ratio
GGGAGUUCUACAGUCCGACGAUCUCAUUUAUUAGAUACAAUAGCCAAAGAAUAAAGUAAAAACUCCUUUUUACCUUGCUGCCCAAUAGGAAUCAGAUGACUUAAAUACUAGGCCUUACUAGGGUCUCUUGGCUUUGGAGUUUUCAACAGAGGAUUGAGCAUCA: 15.9 ratio
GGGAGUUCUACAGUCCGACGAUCCCGAGCAUUCUGUGUUACCAUCCUGCAAAGCCAUUCCAAUCUCAGUUGCCCAGUGUAAAAGAAGGCAUUUCUGAGGAUCUUCCUGUGAAAAUGCCUUGUCUCUACCUGCAGACAUUAGCUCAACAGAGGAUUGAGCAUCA: 0.56 ratio
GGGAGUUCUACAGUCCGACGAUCUGAUUUGCAAGUGGGGGGGAAAGCUACUGUGAGCGUGUGUUUUAUUUUUUAAAUUACACUAUAGAGUGAUUUCCCCCCCCCCCCAAUGUCAAGUUUUUACCCUGCAUGUACUGGAGUAUUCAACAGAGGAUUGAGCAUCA: 1.32 ratio

Series 3
Target: CCNB2, cyclin fold, Cln2 fusion (human)
Method: yeast growth competition, sequencing
Sample: yeast
Notes: weak parent motif
Relative to: not given
Reading: higher = stronger binding
Endpoint: normalised enrichment score
Parent: ORC1 docking peptide (human); PRARKRLELGNLG
G13S: 0.751
R4Y: 0.266
R4V: 0.0422
G10I: 0.552
E8I: 0.509
G13E: 0.253
L12I: 0.43
R2I: 0.943
P1I: 0.253
R6E: -0.311
E8G: 0.541
L12Y: 0.457
R2Y: 0.218
R4M: 0.265
A3P: 0.854
G10P: 0.112
L7Y: 0.588
G10M: 0.745

Mixed results
PhoQ, residues 284 288 289 292 302 303 SIHMAM — fold induction (PhoP, residues 12 14 15 18 19 LQHIR (Escherichia coli, UniProt P23836); Sort-seq, refers to: YFP reporter; E. coli; PhoQ-PhoP variant library, with: 10 µM Mg2+; relative to: high Mg2+ state, higher = stronger signaling): 14.5

A few entries again (series 1):
TCATGTCTGTTTTTGCTACTGTGCTAG: 0.744 z-score
TCATTTTTCTCAACCGTACTGTGCTAG: 1.3 z-score
TCAAATCCCACATTTGATACTGTGCTA: 0.555 z-score
GACGGTTTCGGGATTCGGGACGTGCTA: 7.81 z-score
TTTTTTTTTTCCCTGAAAAAGTGCTAG: 1.61 z-score
TCAATTCTCTTCTTGCAACTGTGCTAG: 1.16 z-score
